# Measured values collected from several papers.
# Each numbered part is a random draw from the data of one study; scales do not carry over between parts.

# Sample 1
# Target: RNA binding protein fox-1 homolog 2, RRM domain, GST-SBP tag (RBFOX2, Homo sapiens, UniProt O43251-10, residues 100-194)
# Technique: RNA Bind-n-Seq
# Form: RNA
# Sample: in vitro
# Concentration: 365 nM
# Notes: natural RNA segment, single round, ends assumed
# Reference: no-protein control
# Reading: higher = stronger binding
# Constant ends, left off below: GGGAGUUCUACAGUCCGACGAUC … UGGAAUUCUCGGGUGCCAA
# Residues (chain): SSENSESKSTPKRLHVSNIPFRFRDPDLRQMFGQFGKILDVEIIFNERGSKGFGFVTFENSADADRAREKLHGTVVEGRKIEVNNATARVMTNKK
Strand,RBNS enrichment (R)
AGAGAACUCAAACAGCCCUUUAAAGGAGCUCUCGGCAACCAACACUGCCACUCUAUGAGAAAACCCUCUGCCCUUUACUGCUGCUGGCUUGCCGUCUGGGAUGCUCAGUA,0.327
UGACAAGGGCCAGAGCCUGUCCCUUGUCAGCAGUAGGACAUUUCCAGCUCUUAGGAAUAGAAAGGAGGACUGCUGACUGUCUGGCGCUGUAUAAAAAUGUGUAUACCAAU,0.702
UGAUUUCUUUUUUUUUCCUGUUGGACUAUGUUUGUGAACAUAAUUGUCAUAAGUUAUGUUUCAGAUUUUUGAAUUUAUUUAUAUGUGUUAUAAUGAAUGCUUCUAUUUAA,0.725
UUAUUAAAUCAUGAGGGCAAAAGAGUGUAGAAUGGAAAAAAGUCUCUUGUAUCUAGAUACUUUAAAUAUGGGAGGCCCUUUAACUUAAUUGCCUUUAGUCAACCACUGGA,0.344
CUUACUAGUCUGUUUUACUGGCUGAGACACCCUAUUUGGCAUUUUCACUGCUGGCUGGUGUGAUGGGUGUAGAGUGCCCACAGAUGAGUCUAUGGAUGUCUUGGCUCUGC,0.756
UUAGAAAACAUUCAGCCAUCCUAGAAACUAGCAAUAUUUAUUUUUGCCUCUUUCGUUUUACCUUCAUUUUUAGAUGAGGUAAAUGUUUUGUCUUUUACUUAAGGGUACUA,0.294
UGGGAGGUGGUCUCUCAAGCUCUGGGUGCUUUUAGUACUUUUUUUUUUUUUUAACUGUAGGGAAGCAGCCCUGACCUUACCUCUCCACUCCUGUCCCGGGAGCUCUCAAU,0.41
AGUUUGUAUAUUUAUAGGUAACUCCAGCUGUUGAAUUUAUACUGGGAAUCUUCAUGAGAAGCUGAAAGAAAGGGAAAAAGAAAGUGGCUUUCUGCUUUCAAAAUUGAGGA,1.09

# Sample 2
# Target: Interferon regulatory factor 3, full length, phosphomimetic (IRF3, Homo sapiens, UniProt Q14653, residues 1-427, S386D/S396D/S398D/S402D/T404D/S405D)
# UniProt Q14653, sequence (whole entry, unmodified, looked up): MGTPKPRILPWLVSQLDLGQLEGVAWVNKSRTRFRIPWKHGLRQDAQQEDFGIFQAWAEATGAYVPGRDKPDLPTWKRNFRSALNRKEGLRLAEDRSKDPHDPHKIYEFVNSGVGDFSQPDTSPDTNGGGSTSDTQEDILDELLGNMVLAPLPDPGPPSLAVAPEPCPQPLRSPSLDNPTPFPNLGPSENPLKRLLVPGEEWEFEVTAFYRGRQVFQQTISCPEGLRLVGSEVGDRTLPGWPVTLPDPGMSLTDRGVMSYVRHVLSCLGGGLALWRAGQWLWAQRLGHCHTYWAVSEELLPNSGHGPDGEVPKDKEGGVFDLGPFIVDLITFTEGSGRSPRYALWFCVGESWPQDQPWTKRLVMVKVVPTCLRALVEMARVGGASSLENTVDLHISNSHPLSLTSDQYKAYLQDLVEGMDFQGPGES
# Technique: protein-binding microarray
# Form: double-stranded DNA, one strand shown
# Sample: in vitro
# Concentration: 2540 nM top
# Notes: 60-bp whole probe
# Together with: salmon DNA 0.4 mg/ml
# Reference: random background probes
# Reading: higher = stronger binding
# Constant ends, left off below: GCCTAGCAC … GTCTTGATTCGCTTGACGCTGCTG
Strand,fitted relative affinity [z-score]
TTAGGTCTCCTTATCCTTTTGTGCTAG,3.22
TTAGATATCGGGGTTCGATTAGTGCTA,-0.12
TTAGAACTGGGGTTTCGTTTAGTGCTA,1.38
GACGGTATCCGTCTCCTGACGTGCTAG,4.33
GACGATATCACTATCGAGACGTGCTAG,1.25
AATTTTTACTTTCTGAATGCGTGCTAG,4.08
TTACGACTGGACTATCGGTTAGTGCTA,-0.209
TCAGGTTTACCAGATCATACTGTGCTA,0.653
TTAGAGTTCAGTATCGATTAGTGCTAG,1.08
GACGGTCTCCTTCTTCTGACGTGCTAG,3.88
TTAGATGTCAGTTCCGATTAGTGCTAG,1.85
GACGGATTGCTACTGCTGACGTGCTAG,-0.28
TTAGAACTGAGTAACGATTAGTGCTAG,-0.295
TCAGCCATCAATATCTGACTGTGCTAG,-0.443
CTTTTATGCTCTTTCTACATGTGCTAG,3.56
CCACATATGCTTTTTAGAAAGTGCTAG,0.93
CTAGGTCTCGGTATCGGTTAGTGCTAG,2.51
GACGGGTTCGGTTCCGGGACGTGCTAG,2.68
TTAGAACTGAGATTCGATTAGTGCTAG,0.0618

# Sample 3
# Target: RING finger protein unkempt homolog, zinc fingers 1-6, SBP tag (UNK, Homo sapiens, UniProt Q9C0B0, residues 30-357)
# UniProt Q9C0B0, sequence (30-357, looked up): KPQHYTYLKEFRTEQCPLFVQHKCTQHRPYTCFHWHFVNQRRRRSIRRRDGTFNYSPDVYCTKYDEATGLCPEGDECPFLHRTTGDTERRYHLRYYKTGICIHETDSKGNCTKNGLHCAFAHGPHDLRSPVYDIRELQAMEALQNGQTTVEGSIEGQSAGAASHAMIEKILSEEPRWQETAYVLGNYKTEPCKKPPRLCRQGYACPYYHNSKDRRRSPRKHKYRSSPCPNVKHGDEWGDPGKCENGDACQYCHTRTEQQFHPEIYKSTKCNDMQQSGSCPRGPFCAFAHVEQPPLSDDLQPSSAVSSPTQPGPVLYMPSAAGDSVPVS
# Technique: RNA Bind-n-Seq
# Form: RNA
# Sample: in vitro
# Concentration: 100 nM
# Notes: RNA with constant flanks, vertebrate orthologous sites, ends assumed
# Reference: input RNA pool
# Reading: higher = stronger binding
# Constant ends, left off below: GGGAGUUCUACAGUCCGACGAUC … CAACAGAGGAUUGAGCAUCA
Strand,bound/input enrichment
CAUGUAGUUCGUUUUUAAUUUCAAGCAAAUCUUAUUGUACUUGAAUGUGCCCUGUUUUGUUAGCACACCUAGACUUGCUGUAACUGUACUCAUGUCCCAGUAUGUACCUUCUUUCUAUGA,1.17 ratio
UCCAAUCUAAGCCAACAGCAGUUCAAAAAUGCUAUUUAUUUGUGUCUGUAAGUUUGUACAUAGUAACAACCUCACAUUGUUGCAGAAUUUUUUUUCCAUGAGUUUGAGUUGUUUUUUUUG,0.493 ratio
GCACAGCAACUCUUACAGUCUUAGGUGUUACCAAGAACAGAUCUCAACUGUAAGAGUUGUCAGUACAGGUUUUCUUUUCCUUUUGUUUUUGUUAUUGUUUUUUUUUUUUUUUUUUUUUUU,3.31 ratio
GCACAUGCCGCUAUCACCAAAAGCAAACUGCCGCUUUUCAAAUUUCAUUCAGAGCCGUUUUAGUGUUUCCUAUUCCCUACCCUUUCCACUACUUAAUCCUAAAUUCUACAUUCUGACACU,2.58 ratio
AUCUCUCAUUUUGUAUGUCCAAAAAAGGUUUUGAAUUUUUAAACAAUUGCUAGUUUUGAUUAGCUCUGCCCUCAUGAAGUAUUAUUAUAAUCACCACAAACAGAUAUCUGUCUGAAUUAC,0.679 ratio
GUCCCUCAGUGACAGUAUGCCAUCUGUAGCCGAUUCCCACUCUAGUCACUUUUCUGAAUUUAGUUGUUCUGACCUUGAAAGCAUGAAAACUUCAUGUAGUCAUGGUUCCAGUGAUUACCA,3.76 ratio
GGUAAAAUAUUGGAUGUAGUAUAUAAAUGAUCCAAGGCAGUGACUUCAGCUUUAUAUAUAUUGUUAGUUUUGAAGUUAUUUACAUUUAUUUAAACUUUCAGAUUCGAUUAUUUACUAUUG,0.696 ratio
AAAAGAACUCUUGCAGUUUUAGAUGUUAUAAAAAAUAUAUAUCUGAAUUGUAAGAGUUGUUAGCACAGGUUUUUUUUUUUUGUUUUUUUUUAAGCACUUGUUUUGGGUACAAGGCAUUUC,0.762 ratio

# Sample 4
# Target: Ras GTPase-activating protein-binding protein 1, full length (G3BP1, Homo sapiens, UniProt Q13283)
# UniProt Q13283, sequence (whole entry, looked up): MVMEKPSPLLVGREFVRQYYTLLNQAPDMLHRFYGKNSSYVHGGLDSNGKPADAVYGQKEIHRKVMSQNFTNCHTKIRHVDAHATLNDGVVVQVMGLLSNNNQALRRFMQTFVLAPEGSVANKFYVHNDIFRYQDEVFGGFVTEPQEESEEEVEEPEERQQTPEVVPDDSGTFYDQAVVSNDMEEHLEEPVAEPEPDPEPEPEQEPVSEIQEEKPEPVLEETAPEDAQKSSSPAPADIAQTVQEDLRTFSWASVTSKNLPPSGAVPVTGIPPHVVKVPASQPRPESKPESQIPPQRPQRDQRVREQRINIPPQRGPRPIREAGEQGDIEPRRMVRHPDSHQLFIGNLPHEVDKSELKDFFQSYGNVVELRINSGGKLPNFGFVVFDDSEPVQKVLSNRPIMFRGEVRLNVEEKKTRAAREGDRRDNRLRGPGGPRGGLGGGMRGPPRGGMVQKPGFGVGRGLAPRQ
# Technique: RNA Bind-n-Seq
# Form: RNA
# Sample: in vitro
# Concentration: 200 nM
# Notes: whole 134-nt RNA, ends assumed
# Together with: 150 mM KCl
# Reference: input library
# Reading: higher = stronger binding
# Constant ends, left off below: GGGAGUUCUACAGUCCGACGAUC … UGGAAUUCUCGGGUGUCAAGG
Strand,log2 enrichment
CUCAAGUCCUGUGCUACACAUCGUAUGUACCGAAUCGGGGCCGGGCCGGGCCGGAAAGUAUUAUGUUACGCCGUUCGGAUCUGCACUUCC,-0.292
UCCUCAAGUCCUGUGCUACACAUCGUAUGUACCGAAUCGGUGGGUGGGGUGGAAAGUAUUAUGUUACGCCGUUCGGAUCUGCACUUCCAG,0.439
ACCAUGCAGGUGGGCAUCUUUGGGAAGUGGGGCAAGGGGGGGAUAGGGAGGGGGGUAACACUUUGGGAACAGGUGGUCCCAGGUCGAUUC,1.1
UGGCCCUGGUGGCAUGCGGGGAGAAAGAGGUGGCCUCAUGGAUCGUGGUGGUCCCGGUGGAAUGUUCAGAGGUGGCCGUGGUGGAGACAG,0.283
UUUUACAACCCCAAUUUAAAGAAAGUUGUAGAGGCCCACAAGAUCGUUCUCUGCGCUGUAAGCCAUGUUUUCAUGCUGCUUUUCAAUGUG,-1.33
GUCCUGUGCUACACAUCGUAUGUACCGAAUCGGGGUGGGGUUUGGGGUUUUUUUGGGGAAAGUAUUAUGUUACGCCGUUCGGAUCUGCAC,0.291
UCCUGUGCUACACAUCGUAUGUACCGAAUCGGGGUGGGGUUUUUUUGGGGUUUUUGGGGAAAGUAUUAUGUUACGCCGUUCGGAUCUGCA,0.653
GUCCUGUGCUACACAUCGUAUGUACCGAAUCGGGGUUUGGGGUGGGGUUUUUUUGGGGAAAGUAUUAUGUUACGCCGUUCGGAUCUGCAC,0.443
CACAGACAACACGCAACCACACAGACACAGAGGGAAGGGGUUGGGAUGGGGACAGGGUGCACAGCAGGGCGGGGUAGGACCCCAGCCCCU,1.54

# Some of these lines once more (sample 2):
Strand,fitted relative affinity [z-score]
TCAGCCATCAATATCTGACTGTGCTAG,-0.443
CTTTTATGCTCTTTCTACATGTGCTAG,3.56
CCACATATGCTTTTTAGAAAGTGCTAG,0.93
CTAGGTCTCGGTATCGGTTAGTGCTAG,2.51
